Measurements pooled from the literature.
Compare with care: the assays were run in different laboratories. Numbers after ± are the reported error.

Compound | target or system | assay | test system | conditions | scale | measurement | result
O=C(N/N=C/c1ccc(C[n+]2ccccc2)cc1)c1cncc(C(=O)N/N=C/c2ccc(C[n+]3ccccc3)cc2)n1 | hp2 hairpin duplex DNA | FRET melting | – | 1 µM | – | ΔTm | 1.3 °C
CCCC(=O)N1CCN(c2ccc(NC(=O)c3ccc([N+](=O)[O-])o3)cc2Cl)CC1 | Mus musculus | gene silencing, high-content imaging | LDR reporter GFP cells | 30 h, confirmation, mean of two runs | – | Emax | 22%
C=CC(=O)N1[C@H](c2ccc3c(c2)OCO3)c2[nH]c3ccccc3c2C[C@@H]1C(=O)N1CCN(C)CC1 | human cyclin E1 N112C-3xFLAG:CDK2 | co-IP with TMT proteomics, measured: DDX17 | – | concentration not given, Q92841 | reference: wild type DMSO | relative co-enrichment | 110%
Nc1ncc(-c2cc(-c3cnn(CC(F)(F)F)c3)ncc2F)nc1C(=O)NC1CNCC(F)C1 (stereo not drawn) | OSR1 | KINOMEscan | – | 1 µM | reference: DMSO control | remaining binding | 100%
COC1CN([C@H]2CC[C@H]([C@@]3(C)Oc4c(Cl)cc(C(=O)NCc5c(SC)cc(C)[nH]c5=O)c(C)c4O3)CC2)C1 | – | RNA-seq, measured: EXTL3 mouse homolog | mouse, HT-1376 xenograft, whole blood | dose not given | reference: vehicle | log2 fold change | 0.139
C[n+]1ccc(/C=N/NC(=O)c2cncc(C(=O)N/N=C/c3cc[n+](C)c4ccccc34)n2)c2ccccc21 | MYC parallel G4 DNA | FRET melting | – | 1 µM, DNA 0.2 µM | – | ΔTm | 11.2 ± 0.2 °C
C=CC(=O)Nc1cccc(Cn2ncc3cnc(Nc4cnn(CCOC)c4)nc32)c1 | AURKC human | binding, KINOMEscan | – | 100 nM | lower = stronger binding | percent of control | 0.55%
O=C(N/N=C/c1ccc(C[n+]2ccccc2)cc1)N/N=C/c1ccc(C[n+]2ccccc2)cc1 | MYC parallel G4 DNA | FRET melting | – | 1 µM, DNA 0.2 µM | – | ΔTm | 3.6 ± 0.3 °C
CNS(=O)(=O)Nc1nccc(Cc2c(C)c3ccc(Oc4ncccc4F)cc3oc2=O)c1F | HPAF-II | cell viability, CellTiter-Glo | – | 7 days | – | IC50 | 11.5 nM
Cc1ncsc1-c1ccc(C(C)NC(=O)C2CC(O)CN2C(=O)C(NC(=O)CCCCCCCCCCN2CCCC(Nc3ncc(Cl)c(Nc4ccccc4S(=O)(=O)C(C)C)n3)C2)C(C)(C)C)cc1 (stereo not drawn) | 22Rv1 | RNA-seq, measured: RECQL5 mRNA | – | concentration not given | reference: DMSO | log2 fold change | -1.26
C[n+]1ccc(/C=N/NC(=O)C(=O)N/N=C/c2cc[n+](C)cc2)cc1 | MYC parallel G4 DNA | FRET melting | – | 1 µM, DNA 0.2 µM | – | ΔTm | 2.4 ± 1.1 °C
Oc1c(/N=N/c2ccccn2)ccc2ccccc12 | Mus musculus | gene silencing, high-content imaging | LDR reporter GFP cells | retest run 1 | – | AC50 | 3980 nM

A few entries again:
Compound | target or system | assay | test system | conditions | scale | measurement | result
C=CC(=O)Nc1cccc(Cn2ncc3cnc(Nc4cnn(CCOC)c4)nc32)c1 | AURKC human | binding, KINOMEscan | – | 100 nM | lower = stronger binding | percent of control | 0.55%
